Experimental data pooled from the literature.
A part holds a random share of what one study measured.

Study 1
Target: Interferon regulatory factor 5, full length, phosphomimetic (IRF5, Homo sapiens, UniProt Q13568-2, residues 1-514, K96S/S451D/S453D/S456D/S462D)
Method: protein-binding microarray
Form: double-stranded DNA, one strand shown
Sample: in vitro
Concentration: 250 nM
Notes: 60-bp whole probe
With: salmon DNA 0.4 mg/ml
Baseline: random background probes
Direction: higher = stronger binding
Shared flanks, not repeated: GCCTAGCAC … GTCTTGATTCGCTTGACGCTGCTG
`TTAGAACTTAGTTTCGATTAGTGCTAG` has a log fluorescence of 10.1 z-score.
`GACGGTAACGGTATCGGGACGTGCTAG` has a log fluorescence of 0.731 z-score.
`GACGGTTTCCTTTCACTGACGTGCTAG` gave a log fluorescence of 3.13 z-score.
`GGTCCAACAAACAGATCCATGTGCTAG` gave a log fluorescence of -0.287 z-score.
`GACGATCTCCTTTTCCTGACGTGCTAG` has a log fluorescence of 0.261 z-score.
`TTTGGACTGGGGTTTCGGTTAGTGCTA` has a log fluorescence of 6.69 z-score.
With `TTAGAACAGGGGACTGGATTAGTGCTA` the log fluorescence was -0.413 z-score.
With `GACGATTTCAGTTGCGAGACGTGCTAG` the log fluorescence was 1.31 z-score.
With `TTAGATCGCAGTTTCGATTAGTGCTAG` the log fluorescence was 8.62 z-score.
`TTAGGTATCGACTTTCGGCTAGTGCTA` gave a log fluorescence of 8.4 z-score.
For `TTAGCTTTCGGACTGGGTTAGTGCTAG`, the log fluorescence was 6.85 z-score.
With `TTAGGTATCGGATTGGGTTAGTGCTAG` the log fluorescence was 2.21 z-score.
With `ACCTCTCACGCATCTGAAACCGTGCTA` the log fluorescence was 0.239 z-score.
For `TCAATATTCATTTTATTACTGTGCTAG`, the log fluorescence was 1.16 z-score.
With `CCTCACATGACTGAATGGACGTGCTAG` the log fluorescence was -0.111 z-score.
`GACGAACCGAGTATCGAGACGTGCTAG` gave a log fluorescence of 1.64 z-score.
For `GACGAAATGAGACTGGAGACGTGCTAG`, the log fluorescence was 0.658 z-score.
The log fluorescence of `TTAGGTTTCGGTCTCGGCTAGTGCTAG` is reported as 10.2 z-score.
For `TTAGATATCAGTATCGCTTAGTGCTAG`, the log fluorescence was 3.92 z-score.
`GACGATTTCAGAATGGAGACGTGCTAG` gave a log fluorescence of 0.427 z-score.
With `GACGGTTTGCTACTGCTGACGTGCTAG` the log fluorescence was -0.14 z-score.
The log fluorescence of `GACGATATCGGTTTTCGAGACGTGCTA` is reported as 5.57 z-score.
`TTAGGTTTCGGCCTCGGTTAGTGCTAG` has a log fluorescence of 7.4 z-score.
`GACGGTTTCGGTTTCGGGAAGTGCTAG` has a log fluorescence of 11 z-score.
`GACAGTCTCCTTCTCCTGACGTGCTAG` gave a log fluorescence of 0.00407 z-score.

Study 2
Target: RNA binding protein fox-1 homolog 2, RRM domain, GST-SBP tag (RBFOX2, Homo sapiens, UniProt O43251-10, residues 100-194)
Method: RNA Bind-n-Seq
Form: RNA
Sample: in vitro
Concentration: 365 nM
Notes: natural RNA segment, single round, ends assumed
Baseline: no-protein control
Direction: higher = stronger binding
Residues (chain): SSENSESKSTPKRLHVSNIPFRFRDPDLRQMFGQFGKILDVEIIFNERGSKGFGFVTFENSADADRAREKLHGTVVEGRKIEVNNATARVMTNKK
Under “RBNS enrichment (R)”, `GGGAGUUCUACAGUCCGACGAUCAAUCCUCUUCACCUCUGUGUUUUCUUCUAGAAGAUGCAUUUUGGGUCUGAGAGGAGCAUUUUCCUGGAAGGCCAUCUUUUAAGGCCCCUGCUUGCUGUCAUAGUGCAGAGUGGAAUUCUCGGGUGCCAA` is recorded as 1.27.
`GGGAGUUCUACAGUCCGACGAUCAGAGUGUUGACCUUGUUAAGACGGACGUAGCUGCACGGUAUUCUCAAUACUGAGAUUGCAAAACUGAAGCUUGACAAGUGUGUGGAAGACCCUGGCUCAAGUUCCAGCACUGGAAUUCUCGGGUGCCAA`: “RBNS enrichment (R)” 1.29.
`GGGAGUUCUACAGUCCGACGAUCUCUGACUGGAAGAAUUUAGGACCACUGCAUCCUGUCUUAAUCCAAGGUACUGGAAAACCUUCCACAUGCCCAACCUGAGACCUGUUCCCCAUCGCUACCAUUUGGCCAAAUGGAAUUCUCGGGUGCCAA`: “RBNS enrichment (R)” 0.831.
`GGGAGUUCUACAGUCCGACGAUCUCAAGGAAACAGUGUGGUGCAAGUACUGCUGUUCUAGCCCCCAAAGAGUUUUCUGUACAAAAUUUUGAGAACCAAUAAAGAUGGAAGGGAGAACUUGGAAUGUUUGAACCUGGAAUUCUCGGGUGCCAA` — result for “RBNS enrichment (R)”: 0.697.
`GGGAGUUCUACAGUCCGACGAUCUGUUAAUGAUCCUGUCUUAGGGCAGAGGCCACCAGGGAGUGGGGAUCCUGAGGGAAGGGGCAGGGAUUUCUCCUUCUUCUUGGUCCUGGCUCCCAAGGGCUUCUGUCUUCUGGAAUUCUCGGGUGCCAA` — result for “RBNS enrichment (R)”: 0.332.
Under “RBNS enrichment (R)”, `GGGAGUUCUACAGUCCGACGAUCUGCGGCCGGGCUGCCUAUUGCUGCCAGGAUACCUGCCCCAGCGCGGCUCGGCCGCCACCCAGGACGCUUCCAGACCACCUGCCAGCCAUCUCGUGGAGAACAUAGAUGGCUGGAAUUCUCGGGUGCCAA` is recorded as 0.181.
`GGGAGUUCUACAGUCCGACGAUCAAUUCUAAUACCUAUAUUUUCAAGUUAUGUCAAUUAAAUCAUUAUCAGGUUAUUUCCUAAUGUAAGAAUAGCUAAAAUGUUGCAGAGAAAUAAGUGACCCAACAAAAUUUUGGAAUUCUCGGGUGCCAA`: “RBNS enrichment (R)” 0.626.
`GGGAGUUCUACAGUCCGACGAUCAUUGCAUGGCCGAGCAUAACUGCCCGCCCCACUCCGACCUAGGAAGAAUUCAACUGGCUGAACCUUCAUACCCUGACUGAGAACUAGUGUCCAAUAAAAGGUGACUGGUUUGGAAUUCUCGGGUGCCAA` — result for “RBNS enrichment (R)”: 0.499.
For `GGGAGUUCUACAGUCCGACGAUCGAAAUUGUAGAUGUUUUUAGAAAAACUUGUGAAUGAAAAUGAAUCCAAGUGUUUCAUGUGAAGAUGUUGAGCCAUUGCUAUCAUGCAUUCCUGUCUCAUGGCAGAAAAUUUGGAAUUCUCGGGUGCCAA`, “RBNS enrichment (R)” read 3.22.

Study 3
Target: Histone acetyltransferase KAT6A, winged helix 2, GST fusion (KAT6A, Homo sapiens, UniProt Q92794, residues 85-181)
Method: protein binding microarray
Form: double-stranded DNA, one strand shown
Sample: in vitro
Concentration: not given
Notes: 8-mer, flanks averaged, mean of 2 arrays, mostly near background
Baseline: not given
Direction: higher = stronger binding
Residues (chain): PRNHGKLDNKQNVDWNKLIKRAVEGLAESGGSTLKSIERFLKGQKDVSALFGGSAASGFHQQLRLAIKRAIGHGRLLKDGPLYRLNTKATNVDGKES
`CTACAACC` gave an E-score of -0.169.
With `ACATGACT` the E-score was -0.245.
`CGGAAGTC` has an E-score of -0.0648.
The E-score of `AGTAACGA` is reported as 0.0025.
With `GCAGCGCC` the E-score was 0.155.
`GAAATCGC` gave an E-score of 0.168.
With `GGAGCACA` the E-score was 0.0646.
For `GACTGGAA`, the E-score was -0.153.
`CACCGTAA` has an E-score of -0.00103.
For `CCAATGCG`, the E-score was -0.051.
`ATGGCCTA` has an E-score of -0.181.
`AAGTCTCA` gave an E-score of -0.206.
`TCCCGACA` has an E-score of 0.102.
With `CCTCGTCC` the E-score was -0.0189.
The E-score of `ACCAGCAA` is reported as 0.0728.
With `CAGTCGCG` the E-score was -0.0794.
With `ACCCGCGC` the E-score was 0.236.
For `AGTGTATG`, the E-score was -0.214.
For `CAAACTCC`, the E-score was 0.0762.
With `CACAGACG` the E-score was -0.0918.
`AAAGAGCT` gave an E-score of 0.0421.
For `AGGAAGAA`, the E-score was -0.0369.
`CACAAGGG` has an E-score of -0.0269.
The E-score of `GTTAGATA` is reported as -0.127.

Study 4
Target: RING finger protein unkempt homolog, zinc fingers 1-6, SBP tag (UNK, Homo sapiens, UniProt Q9C0B0, residues 30-357)
Sequence of UniProt Q9C0B0 (30-357, looked up): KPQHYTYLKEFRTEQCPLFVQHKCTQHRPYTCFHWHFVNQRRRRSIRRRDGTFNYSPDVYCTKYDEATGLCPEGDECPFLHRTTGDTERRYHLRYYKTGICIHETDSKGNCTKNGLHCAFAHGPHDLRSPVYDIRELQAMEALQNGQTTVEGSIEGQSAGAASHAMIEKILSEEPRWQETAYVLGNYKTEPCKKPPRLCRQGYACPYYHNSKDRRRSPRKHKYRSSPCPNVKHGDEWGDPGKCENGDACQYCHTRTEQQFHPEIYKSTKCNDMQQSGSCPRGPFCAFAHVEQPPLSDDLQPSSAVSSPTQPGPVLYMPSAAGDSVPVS
Method: RNA Bind-n-Seq
Form: RNA
Sample: in vitro
Concentration: 100 nM
Notes: RNA with constant flanks, vertebrate orthologous sites, ends assumed
Baseline: input RNA pool
Direction: higher = stronger binding
The bound/input enrichment of `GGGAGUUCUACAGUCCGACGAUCGUUAGGUCAUGACCCUUACAGAUUAGGUCAUGAUGCCUAUAGGUUAGGGCAGGACCCCUAUAGAUUAGGCCACGAUCCCUACAGACUAACACCUGAUCCCUAUAGAAUGUCACCUAGACCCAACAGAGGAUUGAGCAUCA` is reported as 0.565 ratio.
With `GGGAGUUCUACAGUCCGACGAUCGGUAAAAUAUUGGAUGUAGUAUAUAAAUGAUCCAAGGCAGUGACUUCAGCUUUAUAUAUAUUGUUAGUUUUGAAGUUAUUUACAUUUAUUUAAACUUUCAGAUUCGAUUAUUUACUAUUGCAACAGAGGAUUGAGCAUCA` the bound/input enrichment was 0.696 ratio.
`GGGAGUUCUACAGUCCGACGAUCGAAACUCCCCAUUGUCACUGAGAACCACCAAAUCUGACUUUUACAUUUGGUCUCAGAAUUUAGGUUCCUGCCCUGUUGGUUUUUUUUUUUUUUUUAAACAGUUUUCAAAAGUUAUUAAAGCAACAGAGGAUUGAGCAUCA` gave a bound/input enrichment of 0.895 ratio.
With `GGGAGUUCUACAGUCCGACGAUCUCCAAUCUAAGCCAACAGCAGUUCAAAAAUGCUAUUUAUUUGUGUCUGUAAGUUUGUACAUAGUAACAACCUCACAUUGUUGCAGAAUUUUUUUUCCAUGAGUUUGAGUUGUUUUUUUUGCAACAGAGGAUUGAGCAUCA` the bound/input enrichment was 0.493 ratio.
For `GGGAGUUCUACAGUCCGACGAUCUUUUAUUGAUCAGGUCUGUAAAUGUGUACUAAAAAAAUCAGAGUUUAUUUAUAAGCAGAAUAGUUUAUUUAAAGAGAAGGUCUUUUCCUUAUUGAUAUCAUGGUAUGCAUUAAUUCCAUUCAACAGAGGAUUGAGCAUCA`, the bound/input enrichment was 0.243 ratio.
For `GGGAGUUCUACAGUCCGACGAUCAUCCCUCAGUGACAGUAUGCCGUCCGUAGCAGAUUCCCACUCGAGUCACUUUUCUGAAUUUAGUUGUUCUGACCUAGAAAGCAUGAAAACUUCUUGUAGUCAUGGUUCCACUGAUUAUCACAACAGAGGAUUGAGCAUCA`, the bound/input enrichment was 0.441 ratio.
`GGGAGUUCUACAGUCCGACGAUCAUUCAAACCUGUGGUACCAUGGCCUCAUGUUGAAGGAGUAGAAGUGGACUUAGAGUCUAUUAGAAGAAAAAACAAGGCCAAAAAUGAACAAGAACACCAUGCUGGCAGAGAUUCCCAGAACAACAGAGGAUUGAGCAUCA` gave a bound/input enrichment of 0.373 ratio.
`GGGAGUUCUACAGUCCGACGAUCCUUACAGUCAUUUUCCCACAUUUCCUGUAAAUAAUGGAUAAUCAUUUUUAUUUUAUUUUUAAGUACUGUUUUAACAAUGUGGAUAGACCAUAAAUGUACUUGCUGAAUUCAUUCAUGUUUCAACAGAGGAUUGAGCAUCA` has a bound/input enrichment of 0.255 ratio.
With `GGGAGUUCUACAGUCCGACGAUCGUGAGGGUCUACUGACCACUCGCUGUUAUGUCUGGUAUCUGUAAACGCUCUUUUUGUUCUUAGUCUUUUUCUUGUAUAAUUGAUACUCUUUAAAAUUGUUAAUGUAUAACAGGGCUUAUGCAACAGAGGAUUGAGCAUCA` the bound/input enrichment was 2.15 ratio.
With `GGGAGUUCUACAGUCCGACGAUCAGUUUGUAUGUGCAUUAUUCAUUCCUCUCUGUUGUGUUUGGGGAAAGAAAAAAAAGACAUUGAGCCUUUUUUAAGGUUAUUGAUUUAAUUUCAUGUUAUUUGGUUGCAUGAAGUUGCCCUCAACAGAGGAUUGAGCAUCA` the bound/input enrichment was 0.314 ratio.
`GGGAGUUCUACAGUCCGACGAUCCUACAAUAAUGAAAAUCUACAGGAAUUUUUUUAUUUCUCAUUAUCCCCCUUAGGCAUAUUUUAGGCUUUUUACCCCAGGCAGAUCAUUCUGAGUGUGCGAGUGUGUGUGCACAUGUUACACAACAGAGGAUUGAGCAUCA` has a bound/input enrichment of 1.54 ratio.

A few entries again (study 3):
With `ACATGACT` the E-score was -0.245.
With `CCTCGTCC` the E-score was -0.0189.
`TCCCGACA` has an E-score of 0.102.
For `CCAATGCG`, the E-score was -0.051.
With `GCAGCGCC` the E-score was 0.155.
`CACCGTAA` has an E-score of -0.00103.
`CTACAACC` gave an E-score of -0.169.
